Measured values of several laboratories.
Lines come from different studies, so protocols differ. Values joined by “and” are separate records of one study, mostly repeats; a detail may differ. ± marks the error that the study gave.

The GI50 of CCN(C(=O)c1cc(F)ccc1Oc1nncnc1N1CCC2(C1)CN([C@H](CCCN(C)CCOC)C(C)C)C2)C(C)C is reported as over 10 µM (SU-DHL-6; cell growth or viability; 72 h).
CC(C)(C)c1cc(-c2ccc3cccnc3n2)nc(-c2ccc3cccnc3n2)c1.[Cl-].[Cl-].[Ru+2].c1cnc2c(c1)ccc1cccnc12 gave a phototherapeutic index of 3 (A-375; visible light 100 J/cm2; reference: dark EC50 over light EC50).
For CC(C)c1ccc(N(C)c2ccc3c(c2)OCC[C@H]3CNc2cnccc2C(=O)O)cc1, the IC50 was at least 10000 nM (Hs 695T; cell growth or viability, ATP luminescence; 7 days).
Under “log2 fold change”, Cc1ncsc1-c1ccc(C(C)NC(=O)C2CC(O)CN2C(=O)C(NC(=O)CCCCCCCCCCN2CCCC(Nc3ncc(Cl)c(Nc4ccccc4S(=O)(=O)C(C)C)n3)C2)C(C)(C)C)cc1 (centres unmarked) is recorded as -1.32 (22Rv1; RNA-seq, item: PPP3CB-AS1; concentration not given; reference: DMSO).
With CO[C@@H]1[C@@H](OC(N)=O)[C@@H](O)[C@H](Oc2ccc3c(O)c(NC(=O)c4ccc(O)c(CC=C(C)C)c4)c(=O)oc3c2C)OC1(C)C the colony count was 0.1 (HCT-116 BRCA2-/-; 300 µM, replicate 1).
For CCN(CC)CC(=O)Nc1cccc(-n2cc(-c3ccc4ccc(-c5cn(-c6cccc(NC(=O)CN(CC)CC)c6)nn5)cc4c3)nn2)c1, the fold regulation was 1.14 (RCC4; PCR angiogenesis array, item: FN1; 5 x IC50, 2 h, normoxia; reference: untreated).
The colony survival of COc1ccccc1-c1ccncc1C(=O)Nc1nnc(OCc2ccc(Cl)cc2)s1 is reported as 87% and 101% (MDA-MB-231 BRCA1 wild-type; 0.75 µM; reference: vehicle control).
For C[n+]1cccc2cc(/C=N/NC(=O)c3cccc(C(=O)N/N=C/c4ccc5c(ccc[n+]5C)c4)n3)ccc21, the ΔTm was 0.8 ± 0.2 °C (hp2 hairpin duplex DNA; FRET melting; 1 µM, together with: ds26 10 µM).
CN1CCCNC(=O)c2cccc(c2)C(=O)NCCCN(C)CCCNc2cccc3c2C(=O)c2cccc(c2C3=O)NCCC1 — result for “log2 fold change”: 4.39 (SAS; RNA-seq, item: C8orf37-AS1 mRNA; 1 µM, 6 h; reference: untreated cells).
For CNS(=O)(=O)Nc1nccc(Cc2c(C)c3ccc(Oc4ncccc4F)cc3oc2=O)c1F, the IC50 was 10.8 nM (COLO 205; cell viability; 7 days).
CC[n+]1cccc2cc(/C=N/NC(=O)c3cc(C(=O)N/N=C/c4ccc5c(ccc[n+]5CC)c4)ncn3)ccc21 gave a ΔTm of 1 ± 0.3 °C (hp2 hairpin duplex DNA; FRET melting; 1 µM, together with: ds26 10 µM).
